Earlier results that unrelated publications cite.
Each numbered part shows a few of the values that one paper quotes.

Block 1 — organism: Escherichia coli; molecule type: peptide; measurement: MIC
HILRMRIRQMMT: > 1000 µg/mL
MGIGKFQKMRFIGAIRASKGVAKGLLRIAAIRTGRRALTT: 10.4 µM
KWIKIWFIWRRIKWRK: 15.6 µg/mL
MNTTSNMIHRAVQQKRISFRAAKLTVLFLFKRRLLRRLLRHREN: 12.5 µM
MEPFSKRFFLVFFKARCKCFFIKSWFLFFFFFTFLVRRKKGVQKFFYE: 3.1 µg/mL

Other studies, line by line
B1: CCL1; sequence looked up; chain KSMQVPFSRCCFSFAEQEIPLRAILCYRNTSSICSNEGLIFKLKRGKEACALDTVGWVQRHRKMLRHCPSKRK
B1 (CCL1) — EC50 (CCR8 human G206W; inositol phosphate accumulation, agonist): no effect
insulin (human) — ADDL binding (neurons; outcome: decreased; concentration not given): decreased
coproporphyrin III — AUC fold increase (OATP1B1; human; dose not given, with: rifampicin; baseline: without rifampicin): 3.3 fold
LASAADFR — retention coefficient S (isocratic RP-HPLC, C18 column; peptide, water/acetonitrile, 0.1% TFA; 25 °C): 17.5
pegcetacoplan — AUC(0-29 days) (cynomolgus monkey; 7 mg/kg, NOAEL dose, arithmetic mean): 443000 µg·h/mL

Repeated from above (block 1):
HILRMRIRQMMT: > 1000 µg/mL
